Measured values of several laboratories.
Parts stem from different laboratories: compare values within a part only. Changes are numbered by the printed parent chain.

Study 1 — target: CCNE2, cyclin fold, Cln2 fusion (human); method: yeast growth competition, sequencing; matrix: yeast; setting: strong parent motif; baseline: not given; direction: higher = stronger binding
Starting sequence: WEE1 docking peptide (human); HKTFRKLRLFDTP
`R5A L7A`: “normalised enrichment score” 1.11.
`P13G` — result for “normalised enrichment score”: -0.302.
Under “normalised enrichment score”, `F4W` is recorded as 1.33.
For `K6F`, “normalised enrichment score” read -0.572.
`P13C`: “normalised enrichment score” 1.4.
For `H1L`, “normalised enrichment score” read -1.16.
Under “normalised enrichment score”, `K6P` is recorded as 0.901.
`T12S`: “normalised enrichment score” 1.18.
For `T12F`, “normalised enrichment score” read -0.068.
`T3E` — result for “normalised enrichment score”: -0.0899.
`D11E` — result for “normalised enrichment score”: 0.391.
Under “normalised enrichment score”, `F4Q` is recorded as 0.533.
`F10Y` — result for “normalised enrichment score”: 0.0989.
Under “normalised enrichment score”, `F4M` is recorded as 1.11.
`L9T` — result for “normalised enrichment score”: -0.397.
`D11G` — result for “normalised enrichment score”: 0.0928.
Under “normalised enrichment score”, `P13E` is recorded as 0.403.
Under “normalised enrichment score”, `R5D` is recorded as 0.0632.
`R5N`: “normalised enrichment score” -5.48.
For `T12E`, “normalised enrichment score” read 1.
For `T3H`, “normalised enrichment score” read 1.3.

Study 2 — method: DHFR PCA, deep sequencing; matrix: yeast; together with: (+)-ABA 1.4 µM; baseline: wild-type fitted maximum; direction: higher = stronger binding
Target: ABI1, truncated, D143A, DHFR fusion (Arabidopsis thaliana)
Setting: methotrexate growth selection, single substitutions
Starting sequence: PYL1, truncated, DHFR fusion (Arabidopsis thaliana); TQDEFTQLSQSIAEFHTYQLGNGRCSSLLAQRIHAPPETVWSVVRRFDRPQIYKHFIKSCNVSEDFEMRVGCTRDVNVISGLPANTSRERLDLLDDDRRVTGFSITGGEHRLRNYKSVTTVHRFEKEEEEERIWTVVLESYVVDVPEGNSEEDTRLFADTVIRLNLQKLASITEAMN; partner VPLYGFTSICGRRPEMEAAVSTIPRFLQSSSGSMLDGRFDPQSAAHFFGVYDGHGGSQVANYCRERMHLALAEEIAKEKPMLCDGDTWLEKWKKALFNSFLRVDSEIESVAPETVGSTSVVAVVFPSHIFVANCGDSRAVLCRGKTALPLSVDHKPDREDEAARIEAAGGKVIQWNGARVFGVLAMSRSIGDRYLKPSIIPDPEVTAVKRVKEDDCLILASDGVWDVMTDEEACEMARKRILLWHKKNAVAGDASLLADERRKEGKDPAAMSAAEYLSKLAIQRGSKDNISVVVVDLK
Under “relative binding score”, `F15L` is recorded as 14.7%.
Under “relative binding score”, `E4T` is recorded as 51.3%.
`S11E`: “relative binding score” 73.3%.
Under “relative binding score”, `D95Y` is recorded as -0.487%.
`G21H`: “relative binding score” 35.1%.
Under “relative binding score”, `T119Y` is recorded as -0.51%.
Under “relative binding score”, `T173F` is recorded as -14.8%.
`T160N`: “relative binding score” 8.47%.
For `G102K`, “relative binding score” read -2.56%.
`I105Q`: “relative binding score” -17.9%.
For `V137M`, “relative binding score” read 0.356%.
For `T106N`, “relative binding score” read 4.63%.
`I79R` — result for “relative binding score”: 5.47%.
For `P50N`, “relative binding score” read -12.5%.
`V76H`: “relative binding score” 0.715%.
For `D65K`, “relative binding score” read 43.6%.
For `R155C`, “relative binding score” read 30.9%.

Study 3 — method: protein binding microarray; form: double-stranded DNA, one strand shown; matrix: in vitro; concentration: not given; baseline: not given; direction: higher = stronger binding
Target: Histone acetyltransferase KAT6A, winged helix 1, GST fusion (KAT6A, Homo sapiens, UniProt Q92794, residues 1-85)
Setting: 8-mer, flanks averaged, mean of 2 arrays, mostly near background
Target sequence (chain): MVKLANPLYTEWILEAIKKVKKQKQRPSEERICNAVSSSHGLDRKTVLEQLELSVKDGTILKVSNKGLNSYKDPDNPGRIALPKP
`CGTGGGTC` gave an E-score of -0.153.
With `CAGTCTGA` the E-score was -0.131.
For `GGATCGTA`, the E-score was 0.00718.
With `AACGGTTG` the E-score was -0.0347.
For `ATCGACCC`, the E-score was -0.143.
`GGTTGTAC` gave an E-score of -0.00945.
`CTTCGACC` has an E-score of -0.0616.
`GTGGTCGA` has an E-score of -0.183.
For `AGGAGAGG`, the E-score was -0.163.
With `ATCCCTCC` the E-score was -0.0984.
The E-score of `ATCCCGAG` is reported as 0.25.
With `CACCCTGA` the E-score was -0.236.
The E-score of `ATGTACCA` is reported as -0.06.
For `GGGTTCTA`, the E-score was -0.0745.
With `ATCGTGTG` the E-score was -0.163.
The E-score of `CGTGAAGC` is reported as 0.167.
For `GTCTACAC`, the E-score was -0.0979.
`AGGATTTA` has an E-score of -0.098.
With `GCGCCGCA` the E-score was 0.441.
`GTAAGACA` gave an E-score of -0.0327.
With `CATTTCAG` the E-score was -0.281.
For `ATGGAACC`, the E-score was 0.0519.
With `GAGGAAGA` the E-score was -0.216.
For `AAGGGCGT`, the E-score was 0.137.
With `ACTACGTG` the E-score was 0.0114.

Study 4 — method: RNAcompete; form: RNA; matrix: in vitro; concentration: 20 nM; setting: 7-mer, probes averaged, single round; baseline: mean of 7-mers; direction: higher = stronger binding
Target: PABPC1L2, full length, GST fusion (mouse, UniProt A0ABA7IW68)
Construct (chain): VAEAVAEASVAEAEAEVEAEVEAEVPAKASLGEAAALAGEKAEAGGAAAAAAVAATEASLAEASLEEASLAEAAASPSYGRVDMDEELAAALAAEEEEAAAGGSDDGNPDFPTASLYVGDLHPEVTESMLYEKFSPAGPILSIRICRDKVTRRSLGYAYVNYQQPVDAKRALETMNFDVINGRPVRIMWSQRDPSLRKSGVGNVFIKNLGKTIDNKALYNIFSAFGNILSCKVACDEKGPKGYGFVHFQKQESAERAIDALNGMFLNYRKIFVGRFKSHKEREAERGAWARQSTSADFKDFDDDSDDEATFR
For `GACCAUU`, the 7-mer Z-score was -0.175.
`CUGUGUC` has a 7-mer Z-score of -0.273.
With `AUUAUAG` the 7-mer Z-score was -0.249.
With `UCCUGCU` the 7-mer Z-score was -0.405.
`AUCACUA` gave a 7-mer Z-score of -0.0899.
With `GCCUUGG` the 7-mer Z-score was -0.282.
`CUUAUGA` gave a 7-mer Z-score of -0.168.
`AUGAGGC` gave a 7-mer Z-score of 0.2.
`AGCCAUC` has a 7-mer Z-score of -0.224.
The 7-mer Z-score of `AGUAUAC` is reported as -0.195.
For `UCGGACG`, the 7-mer Z-score was -0.135.
For `GCCCCGG`, the 7-mer Z-score was -0.396.
With `GAACUUC` the 7-mer Z-score was -0.246.
The 7-mer Z-score of `CACCUGG` is reported as -0.253.
With `GUAGGUU` the 7-mer Z-score was -0.0518.
`ACCUAUC` has a 7-mer Z-score of -0.233.
The 7-mer Z-score of `CACUGGU` is reported as -0.137.
`ACUGACU` gave a 7-mer Z-score of -0.0663.
`GCGGCAU` gave a 7-mer Z-score of -0.13.
`AAGGAAA` has a 7-mer Z-score of 0.711.
`AAAAUUC` gave a 7-mer Z-score of 4.17.

Study 5 — method: RNA Bind-n-Seq; form: RNA; matrix: in vitro; concentration: 365 nM; baseline: no-protein control; direction: higher = stronger binding
Target: RNA binding protein fox-1 homolog 2, RRM domain, GST-SBP tag (RBFOX2, Homo sapiens, UniProt O43251-10, residues 100-194)
Setting: natural RNA segment, single round, ends assumed
Construct (chain): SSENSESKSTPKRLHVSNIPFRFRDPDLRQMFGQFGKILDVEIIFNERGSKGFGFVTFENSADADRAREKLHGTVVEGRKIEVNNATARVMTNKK
`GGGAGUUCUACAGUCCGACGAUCUAACAUUAUGAGAGAAAAGCAUAAAACAAAAAUAGGUAGUUCUUGGCUUUUAACAUUAAUGCAAAUCAUGCAGAAUUUGAGUUAUAAAUUUAAAUAUAAAUUGACCAUUGUGGAAUUCUCGGGUGCCAA`: “RBNS enrichment (R)” 0.674.
For `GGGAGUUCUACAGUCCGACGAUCCCAGCCUGCUGUCUACCAAAGGACUGUUCCCAGACCCUGUCUUUACCCUUCCCUUUUAAAGUCCCUGAAUUUUACAGUCUGCUUUCAAAUGAAAUAUUGUACUUUAAUUCUGGAAUUCUCGGGUGCCAA`, “RBNS enrichment (R)” read 1.11.
`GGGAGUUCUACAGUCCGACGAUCGGAGAAUGGAGUAGAGUCCCUUGGUACAAGCUCCUCUCCCCCCUCUUUUCCCACCAACUCCUAUUUCCCUACCAACCAAGGAGCCUCCAGAAGGAAAGGAGGAAGAAAUGUGGAAUUCUCGGGUGCCAA` — result for “RBNS enrichment (R)”: 0.708.
For `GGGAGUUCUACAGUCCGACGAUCAAAAGCAUAAAGGGCUGCCUAGUACCGCCCGUUCCCUCCACGCCAGGUGGAGACUACAAGGAGACUGGGCGAACCACACCGUCUCCCUGCAUGGCCUUCCCUUCCUCUAGUGGAAUUCUCGGGUGCCAA`, “RBNS enrichment (R)” read 0.434.
Under “RBNS enrichment (R)”, `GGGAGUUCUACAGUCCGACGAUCCUUUGGAUCCCUCUGUCCCAGAGCCACCCAGAACCCUGACUCUUGAGAAUCAAGAAAACACCCAGAAAGGCCUUAAUGACCUCAUAGGCACUCUUCCAAAAAGACAACAGUGGAAUUCUCGGGUGCCAA` is recorded as 0.385.
Under “RBNS enrichment (R)”, `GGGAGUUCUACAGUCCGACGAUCUUCACUCAAGGCUUUGUUUCCAGAGGCCAGCUAGGCUGUCACAGGCAGGAAUCCCUUCCCAUCUGCUUUGUGAAGGGUCCCAUACAGGUGUAUCUAGACUUCAAGGACAGUGGAAUUCUCGGGUGCCAA` is recorded as 0.39.
`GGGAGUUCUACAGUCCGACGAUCCUGAGGGAUUCUGACUAAUGUGGUUUUUAAAACUUGGGUGUACUUUUUAGGAAAAUUGCAUCUGGCUAUGUAUAAAACAGACCUAAAAUAAAUUUCUUUGAUGUCUUCCCUGGAAUUCUCGGGUGCCAA` — result for “RBNS enrichment (R)”: 0.555.
For `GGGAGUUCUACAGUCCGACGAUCACCACUACACUUUUAGAAAGACAGAAAAAUGUAAGAAUUUGUUUUUACCAUAAUGAGUCUUAAGUAGGUUCAUGAUCUACAUUGGGGCCUGGGAUUAUUUUUUUAAUUUUUGGAAUUCUCGGGUGCCAA`, “RBNS enrichment (R)” read 0.602.
`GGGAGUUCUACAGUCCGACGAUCGGAGGACGAUGCAAAAACAUAUUUAUCUUAGUUUGCUCUGCUGUAGUUCUGUUAUUUAUACUUGGUGUUGCUUGUCAUGGACACCGGUGAACAUGCCGUAACUCUGUGACUGGAAUUCUCGGGUGCCAA` — result for “RBNS enrichment (R)”: 0.812.
Under “RBNS enrichment (R)”, `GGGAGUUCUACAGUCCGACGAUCGAAGUUGGUCCUAGUUUACAUCUUAGAGGAAUGUAUAUGUAUGUUUUACAUGCCUAAAUAUCUGCAGGUUUUCUUACAGGUAAAGCGAAGUGCUUUGAAAAGUUUAGAUUUGGAAUUCUCGGGUGCCAA` is recorded as 0.621.
`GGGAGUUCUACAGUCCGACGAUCUGAGCAGAUGAGGCCACAGAAGCACAAGGGGAAGGUGCCGUGUCAAGCCCAGGCAGACGAGACCUCUGCCCUGAAGACCAACACCAGCCCGUGGGCUGCCCCCUGCCUCCUGGAAUUCUCGGGUGCCAA`: “RBNS enrichment (R)” 0.302.
`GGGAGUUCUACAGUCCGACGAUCAUCUAAUUCAGUAUAGAAUAUGCUGUUUGGCAAUGAGUUUGUGGCCAGAUUUCAAAUAGGGAGUUAAGUGGUACUUUCACAAUCCAAAGAUUUUUAGUUAAAAAUCAUGUUGGAAUUCUCGGGUGCCAA` — result for “RBNS enrichment (R)”: 0.474.

Study 6 — method: universal PBM; form: double-stranded DNA, one strand shown; matrix: in vitro; concentration: 600 nM; direction: higher = stronger binding
Target: Sal-like protein 4, full length isoform A (SALL4, Homo sapiens, UniProt Q9UJQ4, residues 1-1053)
Sequence of UniProt Q9UJQ4 (whole entry, looked up): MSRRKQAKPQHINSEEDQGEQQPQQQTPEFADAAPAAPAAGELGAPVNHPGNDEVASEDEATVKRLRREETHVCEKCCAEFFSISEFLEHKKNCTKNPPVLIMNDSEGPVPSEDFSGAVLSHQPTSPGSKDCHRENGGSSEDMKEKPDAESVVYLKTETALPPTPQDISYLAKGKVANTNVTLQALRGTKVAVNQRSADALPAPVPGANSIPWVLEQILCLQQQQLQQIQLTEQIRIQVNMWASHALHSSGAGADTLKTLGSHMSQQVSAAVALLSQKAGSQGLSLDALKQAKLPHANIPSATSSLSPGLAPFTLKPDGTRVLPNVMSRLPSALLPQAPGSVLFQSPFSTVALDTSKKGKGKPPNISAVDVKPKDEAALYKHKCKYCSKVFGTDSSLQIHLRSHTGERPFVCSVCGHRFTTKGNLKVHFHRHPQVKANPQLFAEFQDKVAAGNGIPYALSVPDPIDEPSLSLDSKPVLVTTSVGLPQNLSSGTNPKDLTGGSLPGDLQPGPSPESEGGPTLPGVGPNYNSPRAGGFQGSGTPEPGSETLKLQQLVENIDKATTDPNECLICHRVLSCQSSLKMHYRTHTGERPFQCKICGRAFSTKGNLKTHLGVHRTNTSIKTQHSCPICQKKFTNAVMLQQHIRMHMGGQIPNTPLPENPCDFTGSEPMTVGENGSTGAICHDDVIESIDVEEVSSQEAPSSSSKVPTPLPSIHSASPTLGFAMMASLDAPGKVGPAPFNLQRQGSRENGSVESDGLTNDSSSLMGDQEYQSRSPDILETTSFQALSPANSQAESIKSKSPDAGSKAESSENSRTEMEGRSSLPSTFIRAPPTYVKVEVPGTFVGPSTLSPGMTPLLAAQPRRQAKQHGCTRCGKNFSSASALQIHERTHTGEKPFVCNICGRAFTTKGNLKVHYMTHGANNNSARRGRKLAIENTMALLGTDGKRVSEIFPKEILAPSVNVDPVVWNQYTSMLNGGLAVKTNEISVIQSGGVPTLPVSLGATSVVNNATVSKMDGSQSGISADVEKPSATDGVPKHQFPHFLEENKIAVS
Setting: 8-mer, flanks averaged, mean of replicates
With `CTTTCAAC` the E-score was 0.0269.
With `ACAATGGG` the E-score was 0.023.
The E-score of `TCTCCTCA` is reported as -0.031.
The E-score of `GTCCCATA` is reported as 0.0711.
With `CAGGAAGC` the E-score was -0.109.
`GGCCGAAC` has an E-score of -0.399.
`AGTGGCCC` has an E-score of -0.269.
For `ACTCATGA`, the E-score was 0.178.
The E-score of `ACAGGCAT` is reported as -0.00936.
With `ACGCACCA` the E-score was -0.207.
`ACGCTGCG` has an E-score of -0.25.
With `ACAAATAG` the E-score was 0.301.
With `CCGTACCG` the E-score was -0.326.
`ATTACGTG` has an E-score of 0.158.
With `CCGAAGCA` the E-score was -0.009.
The E-score of `AGAATTGG` is reported as 0.0786.
`CCCACTTA` gave an E-score of 0.107.
The E-score of `ATAGAGAA` is reported as 0.19.
`ACCCAACA` gave an E-score of -0.194.
For `AGCAAACA`, the E-score was 0.0275.
With `CTGAGAAC` the E-score was -0.0369.
